Published values collected from several papers.
A part holds a random share of what one study measured. Substitutions count along the parent as printed.

Series 1
Target: ABI1, truncated, D143A, DHFR fusion (Arabidopsis thaliana)
Method: DHFR PCA, deep sequencing
Medium: yeast
Setting: methotrexate growth selection, single substitutions
With: (+)-ABA 1.4 µM
Reference: wild-type fitted maximum
Reading: higher = stronger binding
Starting sequence: PYL1, truncated, DHFR fusion (Arabidopsis thaliana); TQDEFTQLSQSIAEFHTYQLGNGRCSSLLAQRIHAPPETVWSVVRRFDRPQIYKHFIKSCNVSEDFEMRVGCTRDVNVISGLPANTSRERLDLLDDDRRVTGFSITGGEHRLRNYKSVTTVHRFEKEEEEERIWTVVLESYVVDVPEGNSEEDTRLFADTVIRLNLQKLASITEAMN; partner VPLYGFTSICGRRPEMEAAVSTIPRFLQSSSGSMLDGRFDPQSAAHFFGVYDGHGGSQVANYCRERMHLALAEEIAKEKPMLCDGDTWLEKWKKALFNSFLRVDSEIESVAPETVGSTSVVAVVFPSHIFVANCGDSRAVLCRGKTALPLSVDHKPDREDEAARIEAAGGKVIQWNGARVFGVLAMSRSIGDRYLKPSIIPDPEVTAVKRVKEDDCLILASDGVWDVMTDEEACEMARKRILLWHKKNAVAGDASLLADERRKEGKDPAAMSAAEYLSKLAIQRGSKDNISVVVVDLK
| Change | relative binding score [%] |
| --- | --- |
| C25P | -3.46 |
| R46D | -28.2 |
| P146T | 10.3 |
| I162G | 6.54 |
| W41H | 4.89 |
| I33R | 10.2 |
| R90T | 25.6 |
| L82Y | 28.8 |
| L156P | 3.77 |
| V40A | 18.8 |
| I162F | -23.8 |
| S59H | 28.9 |
| V142C | 53.2 |
| R132W | 21.3 |
| V121F | -1.09 |
| V136Y | 36.9 |
| S59T | 51 |
| W134T | 75.1 |

Series 2
Target: RING finger protein unkempt homolog, zinc fingers 1-6, GST-SBP tag (UNK, Homo sapiens, UniProt Q9C0B0, residues 30-357)
Method: RNA Bind-n-Seq
Form: RNA
Medium: in vitro
Concentration: not given
Setting: RNA with constant flanks, ends assumed
Reference: input RNA pool
Reading: higher = stronger binding
Residues (chain): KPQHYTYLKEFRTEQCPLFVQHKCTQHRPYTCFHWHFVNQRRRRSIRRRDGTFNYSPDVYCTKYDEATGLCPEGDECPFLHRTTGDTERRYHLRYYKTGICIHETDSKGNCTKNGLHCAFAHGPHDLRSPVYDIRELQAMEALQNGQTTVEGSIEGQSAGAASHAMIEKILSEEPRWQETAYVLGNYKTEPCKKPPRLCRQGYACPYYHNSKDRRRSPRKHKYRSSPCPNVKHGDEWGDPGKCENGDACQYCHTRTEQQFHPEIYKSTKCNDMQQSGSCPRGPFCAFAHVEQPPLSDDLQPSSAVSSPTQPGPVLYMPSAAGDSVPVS
| Strand | bound/input enrichment |
| --- | --- |
| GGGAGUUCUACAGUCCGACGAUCCAUCUCUCAUUUUAUAUGUCCAGAAAUGGCUUUGAAUUUUAAGCAAUUACUAGUUUUAAUCCGCUCUGCCCUCAUGAAGUAUUAUUAUAAUUCACCAUAAACAGCUAUCUGUCUGAAUUACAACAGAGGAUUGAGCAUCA | 36.6 ratio |
| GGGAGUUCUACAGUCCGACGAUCAAUUUGUCUUGUGAUUUUAAACUUAUGAGUCAAGAAGGGUCUCUUCCUUUAUCAUUGCCUUUCCGGAAAUUUUCCACAUCUUUCAGUGUUUGAACUUACUUGUGCUUGAGAUUCUACAGUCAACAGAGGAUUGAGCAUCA | 0.137 ratio |
| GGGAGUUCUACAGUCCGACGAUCAGUGACUUAUCUGAGAAUGUAGAGUCAGUGGUUAAUGAAGAAAAAAUAACAGAGAGUUCCCCCGCCGAAAUUACUGAACAUAAAGAUUUUACACUAAAAACAGAGGAGCUUAUAGAGAGCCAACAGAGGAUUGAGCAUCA | 0.676 ratio |
| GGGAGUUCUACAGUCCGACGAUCCAGAUUUUGAAAACGUUGAUGGAAGAAACAACACGUCAGCAGAGCAUGAUACGGGAGCUCACCGAGACCAACCAGCAACUGAAAAGUGAACUUCAGCUAGAACAGAACCGAGCGGCACACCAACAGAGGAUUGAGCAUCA | 0.338 ratio |
| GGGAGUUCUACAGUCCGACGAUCCAGUGGUAAAGUGAAGCAAAUUGUUCUACCAAGACCUCAUUCUUCAUGUCAUUAAGCAACCGGUUGCAGCAAACAAGGAAGAGCUUCUUGCUUUUUAUUCUUCCAACCUUAAUUGAACACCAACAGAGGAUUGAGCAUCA | 0.179 ratio |
| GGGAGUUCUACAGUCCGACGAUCAUUUGAUACUAAUCUGUCUGUUUGUUUGUGGAUUUUGAGAAAUAUUUGCUUAACUACCCAAACCGGAUUUCUGGUAUUAAAUGGCCUUUGGGUCCUAAAAGCUUUUUUUAACUUCUUGCUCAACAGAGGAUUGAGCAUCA | 0.309 ratio |
| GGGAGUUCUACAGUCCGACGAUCCAUAAUUAUGGUGCUCGUCCUCCUCCAACACCUCCAGCAUCCCCUCCUCCAUCAGGUCUCAUCCGCAAAAACGAAGUAGGCAUAUUUACCACUCCUAAUUUUGAUGAAACUUCCAGUGCUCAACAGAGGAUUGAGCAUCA | 0.395 ratio |
| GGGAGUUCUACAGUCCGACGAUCACAGACAUCCGCUGCCCCUUUGAAAAACGAAGAGAUGCAGCAUGCGUGUUUUGGGACAAUGCCGUAUACAUUUUGGGAGGCUCUCAGCUUUUCCCAAUAAAGCGAAUGGACUGCUAUAAUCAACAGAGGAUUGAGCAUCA | 0.0854 ratio |
| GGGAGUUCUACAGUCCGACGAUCAGUAGCACUUUUGUUGUACAUUGUGUUCCAAUAAGUAUAGUAUGGAACACUUUCUCAUUUUCCGUUCCCAUAAUAUGCCAGUUUUUGCUUUCCUAGUGUUCUGUGAGUAUUAGGAUUUGGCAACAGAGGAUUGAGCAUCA | 1.34 ratio |
| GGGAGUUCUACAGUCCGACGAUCGUCUGGAGUCUCUCGGGACACGACCAGCUGAUUGUAGACACCGUGUUGAUAUCACCCGAAAUGAAGACCUUGUCAACCAAUAGAGGAACUGUCUGAACCAACUGGGUACUGAUGUCUCUGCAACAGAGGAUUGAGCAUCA | 0.101 ratio |
| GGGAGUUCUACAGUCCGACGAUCAUAUUGGAGAAUUGGGAGAAGUCUCUUUGGUUUGGAAAAAAAAAAAAGGAAUCUUCAGCCCCGAUCACUUUCUUAUCCGGACUGGGAUAUUAAAUAUACGACACAUCCAGGAGUUUAUUGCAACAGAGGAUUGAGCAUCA | 0.352 ratio |

Series 3
Target: Interferon regulatory factor 7, full length, phosphomimetic (IRF7, Homo sapiens, UniProt Q92985, residues 1-503, S101K/S471D/S472D/S475D/S476D/S477D/S483D/S484D/S487D)
Chain of UniProt Q92985 (whole entry, unmodified, looked up): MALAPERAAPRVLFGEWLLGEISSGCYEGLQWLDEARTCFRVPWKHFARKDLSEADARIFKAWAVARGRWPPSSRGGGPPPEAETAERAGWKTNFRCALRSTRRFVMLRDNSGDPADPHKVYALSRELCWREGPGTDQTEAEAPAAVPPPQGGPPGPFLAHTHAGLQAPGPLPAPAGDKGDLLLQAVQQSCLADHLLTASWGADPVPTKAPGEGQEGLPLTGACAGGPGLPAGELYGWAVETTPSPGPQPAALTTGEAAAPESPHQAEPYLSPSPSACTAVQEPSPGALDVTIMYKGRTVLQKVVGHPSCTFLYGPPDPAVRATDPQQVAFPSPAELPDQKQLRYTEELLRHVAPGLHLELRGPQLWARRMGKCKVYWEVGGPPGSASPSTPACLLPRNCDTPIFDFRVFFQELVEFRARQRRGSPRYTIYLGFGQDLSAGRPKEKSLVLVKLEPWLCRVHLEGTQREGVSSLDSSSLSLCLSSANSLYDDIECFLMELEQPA
Method: protein-binding microarray
Form: double-stranded DNA, one strand shown
Medium: in vitro
Concentration: 250 nM
Setting: 60-bp whole probe
With: salmon DNA 0.4 mg/ml
Reference: random background probes
Reading: higher = stronger binding
Constant ends, left off below: GCCTAGCAC … GTCTTGATTCGCTTGACGCTGCTG
| Strand | log fluorescence [z-score] |
| --- | --- |
| TCCTCTTTCACTGCTCCATACGTGCTA | 1.42 |
| GACGGTATCGGGTTCGGGACGTGCTAG | 1.69 |
| TTAGATATCAGTTTCGAGTAGTGCTAG | 4.56 |
| TAAGGTATCGGACTGGGTTAGTGCTAG | 0.044 |
| TTAGATATCGGGTTGCGATTAGTGCTA | 0.327 |
| TTAGGTATCGGTATCGGCTAGTGCTAG | 1.57 |
| TTGGGTATCGGTATCGGTTAGTGCTAG | 1.97 |
| GACGGTATCGACTTCCGGGACGTGCTA | 1.35 |
| GACGGTTACCTTTTCCTGACGTGCTAG | 0.806 |
| TGACAGCAGGAACATGGGCTGTGCTAG | -0.864 |
| TCCATTATTGCTTCCTCTTTGTGCTAG | 1.14 |
| GACGGTTTCGGGTATCGGGAAGTGCTA | 8.06 |
| GACGATTTCAGTTCCGAGCCGTGCTAG | 0.398 |
| ATACCTTAGGTTTTCTGGTTGTGCTAG | 0.777 |
| TCAGGTTTGTACACCGCACTGTGCTAG | 0.0326 |
| TTCTACTTCTCTTTTTGCTTGTGCTAG | 1.58 |
| TTAGATTTTAGTCTCGATTAGTGCTAG | 2.48 |
| TTAGGTATCGACTATCGGTCAGTGCTA | 0.0607 |
| CCACTCTTCCTTTACTTTCTGTGCTAG | 1.1 |
| GACGATTTGAGTTTCGAGACGTGCTAG | 3.08 |
| TTAGATTTCGGACTGGATTAGTGCTAG | 0.417 |
| TTGGGTCTCCTACTGCTTTAGTGCTAG | -0.593 |
| GACGGTCTCCTTATTCTGACGTGCTAG | -0.00106 |
| TAAGGTTTCCTTTTCCTTTAGTGCTAG | 7.49 |
| GGTGGTCTGGGACCCTCCCCGTGCTAG | -0.542 |

Series 4
Target: CCNF, cyclin fold, Cln2 fusion (human)
Method: yeast growth competition, sequencing
Medium: yeast
Setting: strong parent motif
Reference: not given
Reading: higher = stronger binding
Starting sequence: SAMHD1 docking peptide (human); ASKSRVQLFKDDP
| Change | normalised enrichment score |
| --- | --- |
| ASCSRVQLFKDDP [K3C] | 1.44 |
| ASKSRHQLFKDDP [V6H] | 0.111 |
| ASKSHVQLFKDDP [R5H] | -0.0267 |
| ASKSRVQLFPDDP [K10P] | 2 |
| ASKSRVQLFKHDP [D11H] | 0.682 |
| ASKNRVQLFKDDP [S4N] | 0.337 |
| ASKSRVQLFKDMP [D12M] | 1.57 |
| ASKWRVQLFKDDP [S4W] | 2.29 |
| ASKSRVQCFKDDP [L8C] | -0.443 |
| ASKSYVQLFKDDP [R5Y] | -0.0352 |
| ASKSRVQLFHDDP [K10H] | 0.36 |
| ASISRVQLFKDDP [K3I] | 1.04 |
| AVKSRVQLFKDDP [S2V] | 2.25 |
| ASKTRVQLFKDDP [S4T] | 3.78 |
| ASKSTVQLFKDDP [R5T] | -0.0727 |
| ASKSRVQLPKDDP [F9P] | -0.263 |
| ADKSRVQLFKDDP [S2D] | 1.63 |
| ASKKRVQLFKDDP [S4K] | 0.692 |
| AEKSRVQLFKDDP [S2E] | 1.79 |
| ASKSRVPLFKDDP [Q7P] | -0.537 |
| ASKSRVDLFKDDP [Q7D] | -0.369 |
| AAKSRVQLFKDDP [S2A] | 1.56 |
| ASKSRVQQFKDDP [L8Q] | -0.33 |
| ASNSRVQLFKDDP [K3N] | 0.986 |
| ASKSRNQLFKDDP [V6N] | 0.144 |

Series 5
Target: Sal-like protein 4, full length isoform B (SALL4, Homo sapiens, UniProt Q9UJQ4-2, residues 1-616)
Method: universal PBM
Form: double-stranded DNA, one strand shown
Medium: in vitro
Concentration: not given
Setting: 8-mer, flanks averaged, mean of replicates
Reading: higher = stronger binding
| Strand | E-score |
| --- | --- |
| CGTGCAAG | -0.181 |
| CAACATGG | -0.0285 |
| AGGGAAGC | -0.0295 |
| CTTCGAAA | 0.0775 |
| ATTCCATG | -0.106 |
| AGATACAA | 0.29 |
| CGGGGGTA | -0.0333 |
| ACTCTCGG | -0.155 |
| GCGAATCC | -0.151 |
| CCTATTGA | 0.236 |
| ACACGTTC | 0.11 |
| AAAGCGAC | -0.0847 |
| AAGTCGAC | 0.124 |
| AGGATCCA | -0.207 |
| TCAGCAGA | -0.0705 |
| CCACATGA | 0.0275 |
| ACGGACAT | -0.00485 |
| CTCGGATC | -0.171 |
| AGGAACTC | -0.0569 |
| GGGTCTGA | -0.188 |
| AAGTGGGC | -0.102 |
| AACTTGTA | 0.235 |

Mixed results
| Molecule | target | test | system | conditions | how to read | measurement | result |
| --- | --- | --- | --- | --- | --- | --- | --- |
| PhoQ, residues 284 288 289 292 302 303 TLSLKA | PhoP, residues 12 14 15 18 19 TQCLL (Escherichia coli, UniProt P23836) | Sort-seq, measured: YFP reporter | E. coli | PhoQ-PhoP variant library, with: 10 µM Mg2+ | reference: high Mg2+ state, higher = stronger signaling | fold induction | 2.32 |
